Measured values gathered from unrelated publications.
Each line is one published result; not all experiments were run side by side. ± marks the error that the study gave.
BCHE: Cholinesterase (BCHE, Homo sapiens, UniProt P06276)
Sequence of UniProt P06276 (whole entry, looked up): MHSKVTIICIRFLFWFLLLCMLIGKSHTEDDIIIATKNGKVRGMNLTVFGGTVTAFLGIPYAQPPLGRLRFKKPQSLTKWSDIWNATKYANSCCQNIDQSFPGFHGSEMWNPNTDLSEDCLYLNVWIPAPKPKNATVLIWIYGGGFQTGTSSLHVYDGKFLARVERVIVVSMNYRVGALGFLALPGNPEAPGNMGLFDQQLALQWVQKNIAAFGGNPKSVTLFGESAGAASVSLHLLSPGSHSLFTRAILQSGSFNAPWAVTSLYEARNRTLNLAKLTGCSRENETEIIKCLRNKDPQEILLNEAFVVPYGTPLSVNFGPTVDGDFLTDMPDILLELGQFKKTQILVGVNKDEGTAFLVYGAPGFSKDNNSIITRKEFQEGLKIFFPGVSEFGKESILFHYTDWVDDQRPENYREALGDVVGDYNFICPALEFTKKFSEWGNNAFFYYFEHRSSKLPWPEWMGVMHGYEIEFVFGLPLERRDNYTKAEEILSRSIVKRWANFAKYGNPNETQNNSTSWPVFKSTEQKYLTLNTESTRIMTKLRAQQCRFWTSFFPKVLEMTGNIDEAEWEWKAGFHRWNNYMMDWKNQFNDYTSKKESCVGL
Sequence of UniProt Q9Y271 (whole entry, looked up): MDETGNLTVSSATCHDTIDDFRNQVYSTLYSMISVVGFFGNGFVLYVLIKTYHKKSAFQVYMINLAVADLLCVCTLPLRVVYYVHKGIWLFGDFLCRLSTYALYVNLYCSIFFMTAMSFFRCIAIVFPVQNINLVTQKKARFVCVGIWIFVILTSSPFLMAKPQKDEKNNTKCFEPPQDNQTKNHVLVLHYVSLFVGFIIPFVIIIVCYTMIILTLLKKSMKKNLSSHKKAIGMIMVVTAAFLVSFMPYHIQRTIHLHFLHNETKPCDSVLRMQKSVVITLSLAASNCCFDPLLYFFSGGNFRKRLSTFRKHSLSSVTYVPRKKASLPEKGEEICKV
Sequence of UniProt P33032 (whole entry, looked up): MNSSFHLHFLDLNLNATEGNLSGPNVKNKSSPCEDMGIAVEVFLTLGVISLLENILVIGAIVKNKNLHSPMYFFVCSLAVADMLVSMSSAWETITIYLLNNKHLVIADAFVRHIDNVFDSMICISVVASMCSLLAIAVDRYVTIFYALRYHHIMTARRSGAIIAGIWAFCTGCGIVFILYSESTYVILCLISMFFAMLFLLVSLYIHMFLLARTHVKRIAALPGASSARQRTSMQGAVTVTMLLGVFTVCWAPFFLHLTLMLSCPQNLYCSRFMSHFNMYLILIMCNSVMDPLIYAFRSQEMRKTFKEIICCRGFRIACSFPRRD
Sequence of UniProt P46663 (whole entry, looked up): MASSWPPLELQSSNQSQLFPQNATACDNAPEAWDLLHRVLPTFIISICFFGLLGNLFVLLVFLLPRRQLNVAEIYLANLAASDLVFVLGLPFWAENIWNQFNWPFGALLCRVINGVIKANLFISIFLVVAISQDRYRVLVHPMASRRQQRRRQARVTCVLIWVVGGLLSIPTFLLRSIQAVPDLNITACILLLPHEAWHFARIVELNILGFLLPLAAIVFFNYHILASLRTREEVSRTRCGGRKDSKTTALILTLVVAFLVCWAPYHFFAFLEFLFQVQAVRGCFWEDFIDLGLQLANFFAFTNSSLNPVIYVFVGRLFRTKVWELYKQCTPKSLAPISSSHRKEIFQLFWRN
Sequence of UniProt P11362 (whole entry, looked up): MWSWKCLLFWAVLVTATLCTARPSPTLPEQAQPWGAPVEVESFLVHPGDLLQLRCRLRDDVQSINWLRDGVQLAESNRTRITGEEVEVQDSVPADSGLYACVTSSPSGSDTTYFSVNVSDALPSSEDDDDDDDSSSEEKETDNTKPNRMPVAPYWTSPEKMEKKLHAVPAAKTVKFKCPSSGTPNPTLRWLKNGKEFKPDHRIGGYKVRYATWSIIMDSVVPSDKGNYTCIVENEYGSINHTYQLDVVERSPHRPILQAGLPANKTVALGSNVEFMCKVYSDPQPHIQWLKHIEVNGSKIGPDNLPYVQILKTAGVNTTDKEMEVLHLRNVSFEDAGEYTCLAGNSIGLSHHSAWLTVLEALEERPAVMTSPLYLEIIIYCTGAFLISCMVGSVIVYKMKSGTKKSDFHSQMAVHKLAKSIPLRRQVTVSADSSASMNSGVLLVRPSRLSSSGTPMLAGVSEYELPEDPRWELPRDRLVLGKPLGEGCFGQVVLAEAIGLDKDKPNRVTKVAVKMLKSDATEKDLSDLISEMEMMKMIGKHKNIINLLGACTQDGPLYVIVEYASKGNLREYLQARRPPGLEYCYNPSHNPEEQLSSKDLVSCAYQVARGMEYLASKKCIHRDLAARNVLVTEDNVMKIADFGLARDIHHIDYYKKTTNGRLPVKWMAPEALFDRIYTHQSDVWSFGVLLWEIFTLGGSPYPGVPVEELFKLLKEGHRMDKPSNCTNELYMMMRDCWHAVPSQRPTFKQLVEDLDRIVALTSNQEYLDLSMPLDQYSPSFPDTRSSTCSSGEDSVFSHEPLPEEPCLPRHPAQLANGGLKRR
Sequence of UniProt P14416 (whole entry, looked up): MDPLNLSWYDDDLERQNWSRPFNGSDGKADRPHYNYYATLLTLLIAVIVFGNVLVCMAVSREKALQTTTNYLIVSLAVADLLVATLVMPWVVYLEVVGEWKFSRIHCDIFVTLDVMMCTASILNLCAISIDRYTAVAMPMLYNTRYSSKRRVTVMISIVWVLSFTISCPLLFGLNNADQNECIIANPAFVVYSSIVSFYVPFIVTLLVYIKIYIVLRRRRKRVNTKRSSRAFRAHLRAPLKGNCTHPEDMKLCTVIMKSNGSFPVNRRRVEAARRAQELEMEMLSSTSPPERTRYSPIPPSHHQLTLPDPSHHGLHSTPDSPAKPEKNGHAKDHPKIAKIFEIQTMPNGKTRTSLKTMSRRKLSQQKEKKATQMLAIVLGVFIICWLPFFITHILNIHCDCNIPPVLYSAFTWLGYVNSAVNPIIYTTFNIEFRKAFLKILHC
Sequence of UniProt Q96P66 (whole entry, looked up): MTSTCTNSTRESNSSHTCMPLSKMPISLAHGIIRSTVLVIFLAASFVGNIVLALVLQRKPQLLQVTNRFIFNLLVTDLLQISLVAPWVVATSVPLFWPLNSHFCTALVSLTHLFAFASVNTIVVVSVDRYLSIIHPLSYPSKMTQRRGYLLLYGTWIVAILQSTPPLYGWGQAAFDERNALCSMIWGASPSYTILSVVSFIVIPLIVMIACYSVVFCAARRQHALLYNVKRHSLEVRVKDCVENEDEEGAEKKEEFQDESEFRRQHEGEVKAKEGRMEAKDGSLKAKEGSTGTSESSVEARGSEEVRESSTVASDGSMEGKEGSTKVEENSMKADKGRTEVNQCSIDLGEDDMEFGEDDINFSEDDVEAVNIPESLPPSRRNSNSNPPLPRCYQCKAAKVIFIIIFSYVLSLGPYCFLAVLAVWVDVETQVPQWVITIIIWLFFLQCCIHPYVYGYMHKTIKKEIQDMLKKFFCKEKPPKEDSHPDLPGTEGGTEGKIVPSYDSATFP
Sequence of UniProt Q08345 (whole entry, looked up): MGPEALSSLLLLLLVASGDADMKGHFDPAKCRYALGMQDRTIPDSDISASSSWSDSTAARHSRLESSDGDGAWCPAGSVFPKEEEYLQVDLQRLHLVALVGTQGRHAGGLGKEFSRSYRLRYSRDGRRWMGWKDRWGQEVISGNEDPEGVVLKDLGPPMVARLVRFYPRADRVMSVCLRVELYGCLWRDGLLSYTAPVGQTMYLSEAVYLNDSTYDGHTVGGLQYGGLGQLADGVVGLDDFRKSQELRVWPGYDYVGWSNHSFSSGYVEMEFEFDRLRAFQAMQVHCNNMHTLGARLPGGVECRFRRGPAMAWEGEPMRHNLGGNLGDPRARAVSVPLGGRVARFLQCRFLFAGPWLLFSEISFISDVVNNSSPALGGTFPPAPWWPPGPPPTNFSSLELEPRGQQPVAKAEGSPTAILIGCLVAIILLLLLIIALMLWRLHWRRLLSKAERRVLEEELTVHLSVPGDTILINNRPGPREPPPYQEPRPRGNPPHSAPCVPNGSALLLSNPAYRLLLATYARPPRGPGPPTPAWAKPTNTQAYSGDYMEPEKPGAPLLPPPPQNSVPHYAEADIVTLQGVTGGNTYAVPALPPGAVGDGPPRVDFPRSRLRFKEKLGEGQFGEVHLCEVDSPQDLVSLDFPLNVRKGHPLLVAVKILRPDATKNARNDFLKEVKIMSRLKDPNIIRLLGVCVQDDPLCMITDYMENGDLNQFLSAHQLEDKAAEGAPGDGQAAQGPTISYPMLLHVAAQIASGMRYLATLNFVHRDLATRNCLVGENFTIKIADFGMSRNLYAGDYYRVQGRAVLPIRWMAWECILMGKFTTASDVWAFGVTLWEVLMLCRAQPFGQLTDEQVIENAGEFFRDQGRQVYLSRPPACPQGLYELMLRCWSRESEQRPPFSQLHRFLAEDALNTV

Structure (SMILES)	tested on	assay	test system	conditions	how to read	measurement	result
C[C@@H](O)[C@@H](CO)NC(=O)[C@@H](CCCNC(=N)N)NC(=O)[C@@H]1CCCN1C(=O)[C@@H]1CSSC[C@H](NC(=O)[C@H](Cc2ccccc2)NC(=O)CN2CCN(CC(=O)O)CCN(CC(=O)O)CCN(CC(=O)O)CC2)C(=O)N[C@@H](Cc2ccc(O)cc2)C(=O)N[C@@H](Cc2ccccc2)C(=O)N[C@@H](CCC(N)=O)C(=O)N[C@@H](CC(N)=O)C(=O)N1 [gallium-68 labelled]	–	–	Wistar rat, healthy, sublingual gland	intravenous, 8 MBq, 30 min, mean	–	tissue uptake	0.55 %ID/g
NCC(O)C1CCCCCCC1 (centres unmarked)	Plasmodium falciparum	–	W2	–	–	IC50	3.16 µM
CN(C(=O)n1cnc(-c2ccc[n+]([O-])c2)c1)C1CCCCC1	Protein S100-A16 (Rattus norvegicus, UniProt A0ACM8QDC9)	competitive ABPP with azido-FP probe	rat brain membrane fraction	100 µM, unit not given	baseline: DMSO	probe labelling	-2.6
CNC1(c2ccccc2Cl)CCCCC1=O (racemic)	D(2) dopamine receptor (DRD2, Homo sapiens, UniProt P14416)	radioligand binding, antagonist, radioligand displacement	–	30 µM, long isoform	–	inhibition	1%
C[C@H]1CN(c2n[nH]c3nc(N[C@H]4CC[C@H](NS(=O)(=O)CCC(F)(F)F)CC4)ncc23)CCO1	Epithelial discoidin domain-containing receptor 1 (DDR1, Homo sapiens, UniProt Q08345)	inhibitor, Kinobeads competition profiling	–	0.032 µM	baseline: vehicle	relative abundance	1.03
CC[C@H](C)[C@H](NC(=O)CNC(=O)[C@@H](N)CCCCN)C(=O)N[C@@H](CC(C)C)C(=O)N[C@@H](CCCCN)C(=O)N[C@@H](CCCNC(=N)N)C(=O)N[C@@H](CCC(=O)O)C(=O)N[C@@H](CCCCN)C(=O)N[C@@H](CCCNC(=N)N)C(=O)N[C@@H](CC(C)C)C(=O)N[C@@H](CCCNC(=N)N)C(=O)N[C@@H](CCCNC(=N)N)C(=O)N[C@@H](CCCCN)C(=O)N[C@@H](CC(N)=O)C(=O)N[C@H](C(=O)N[C@@H](Cc1c[nH]cn1)C(=O)N[C@@H](Cc1c[nH]c2ccccc12)C(=O)N1CCC[C@H]1C(=O)N[C@@H](CCC(=O)O)C(=O)N[C@@H](CCC(=O)O)C(=O)NCC(=O)N[C@@H](CCCCN)C(=O)N[C@@H](CC(C)C)C(=O)N[C@@H](CCCNC(=N)N)C(=O)N[C@@H](CCC(=O)O)C(=O)N[C@@H](Cc1ccccc1)C(=O)N[C@@H](Cc1ccccc1)C(=O)N[C@@H](Cc1ccccc1)C(=O)N[C@@H](Cc1ccccc1)C(=O)N[C@@H](CCC(=O)O)C(=O)N[C@@H](CC(C)C)C(=O)N[C@@H](CC(=O)O)C(=O)N[C@@H](CCC(=O)O)C(=O)N[C@@H](C)C(=O)N[C@@H](CCC(=O)O)C(=O)N[C@@H](CCCNC(=N)N)C(=O)N[C@H](C(=O)N[C@@H](CC(N)=O)C(=O)N[C@H](C(=O)O)C(C)C)C(C)C)C(C)C	HeLa and HEK-293T cells	phosphatase bead binding, competitive inhibitor, PIB pulldown iBAQ LC-MS/MS, refers to: PPP5C	–	concentration not given	baseline: untreated control	log2 fold change	-0.07
O=C(c1ccc(Cl)cc1)N1CCN2C(=O)N(OC(=O)N3CCOc4ccccc43)C(=O)C2C1 (centres unmarked)	BCHE	MS-based ABPP	SW-620 conditioned medium	10 µM, 1 h, 37 °C	baseline: compound over DMSO, lower = more inhibition	median protein ratio	1.25
C[N+](C)(C)CCCCCCCCCC[N+](C)(C)C.[Br-].[Br-]	BCHE	enzyme activity, inhibitor	–	Triton	–	IC50	inactive
O=C(Nc1cccnn1)N1CCC(=Cc2cccc(Oc3ccc(C(F)(F)F)cn3)c2)CC1	Fibroblast growth factor receptor 1 (FGFR1, Homo sapiens, UniProt P11362)	kinase activity, inhibitor	–	50 µM, human, added: poly(Glu:Tyr) substrate	–	inhibition	-15%
CN1CCN(c2cc(-c3ccncc3)c(-c3ccc4ccccc4c3)nn2)CC1	Cysteinyl leukotriene receptor 1 (CYSLTR1, Homo sapiens, UniProt Q9Y271)	agonist, FLIPR	–	12.5 µM	–	activation	-2%
COc1cc2c(Oc3ccc4[nH]c(C)cc4c3F)ccnc2cc1OCC1(N)CC1	–	–	paediatric recurrent refractory sarcoma	8 mg	–	grade 3 Hyperthyroidism	0%
Oc1ccc2c3c1O[C@H]1[C@@H](O)CC[C@@]4(O)[C@@H](C2)N(CC2CCC2)CC[C@]314	GPR101 (Homo sapiens, UniProt Q96P66)	β-arrestin recruitment, TANGO luminescence	–	concentration not given	baseline: basal luminescence	log2 fold change	0.083
C[C@@H](N[C@H]1CCCC[C@@H]1NC(=O)c1ccc(Cl)cc1)c1cccc2ccccc12.Cl	BCHE	–	–	concentration not given, Triton	–	efficacy	-111 ± 10.3%
COC1=CC(=O)c2c(O)c3c(c(O)c2C1=O)O[C@]1(Oc2c(cc4cc(C)oc(=O)c4c2O)[C@@H](O)[C@@H]1O)[C@@H]3O	Staphylococcus aureus	RNA-Seq, refers to: nrdD	MRSA ATCC 433000	MIC, 12 h	baseline: untreated	log2 fold change	-2.35
CC[C@H](C)[C@@H]1NC(=O)[C@@H]2CCCN2C(=O)[C@H](CC(C)C)NC(=O)[C@H](CC(C)C)NC(=O)CNC(=O)[C@@H](NC(=O)[C@@H](NC(=O)[C@H](CC(=O)O)NC(=O)CNC(=O)[C@@H](NC(=O)[C@H](C)NC(=O)CNC(=O)[C@H](CCCCN)NC(=O)[C@H](CC(C)C)NC(=O)[C@H](CC(C)C)NC(=O)[C@H](CCCCN)NC(=O)CNC(=O)[C@@H](NC(=O)[C@@H](N)CC(C)C)C(C)C)C(C)C)C(C)C)CSSC[C@@H](C(=O)O)NC1=O	–	RNA-seq, refers to: Nfkb2	mouse, traumatic brain injury model, frontal cortex and hippocampus	dose not given	baseline: TBI alone	log2 fold change	-2.03
CC[C@H](NC(=O)[C@H](CS(=O)(=O)CC1CC1)N[C@@H](c1ccc(F)cc1)C(F)(F)F)C(=O)C(=O)NC1CC1	BCHE	–	–	concentration not given, Triton	–	efficacy	-79.3 ± 19.1%
CC[C@H](C)[C@H](NC(=O)[C@H](Cc1ccccc1)NC(=O)[C@H](CCC(=O)O)NC(=O)[C@H](CCCNC(=N)N)NC(=O)[C@H](C)NC(=O)[C@H](C)NC(=O)[C@H](CCC(N)=O)NC(=O)[C@H](CCC(=O)O)NC(=O)[C@H](CCC(=O)O)NC(=O)[C@H](CC(C)C)NC(=O)[C@H](Cc1ccc(O)cc1)NC(=O)[C@H](CO)NC(=O)[C@H](CO)NC(=O)[C@@H](NC(=O)[C@H](CC(=O)O)NC(=O)[C@H](CO)NC(=O)[C@@H](NC(=O)[C@H](Cc1ccccc1)NC(=O)[C@@H](NC(=O)CNC(=O)[C@H](CCC(=O)O)NC(=O)[C@H](C)NC(=O)CCc1c[nH]cn1)[C@@H](C)O)[C@@H](C)O)C(C)C)C(=O)N[C@@H](C)C(=O)N[C@@H](Cc1c[nH]c2ccccc12)C(=O)N[C@@H](CC(C)C)C(=O)N[C@H](C(=O)N[C@@H](CCCNC(=N)N)C(=O)NCC(=O)N[C@@H](CCCNC(=N)N)C(=O)N[C@@H](CCCCNC(=O)COCCOCCNC(=O)COCCOCCNC(=O)CC[C@H](NC(=O)CCCCCCCCCCCCCCCCC(=O)O)C(=O)O)C(=O)NCC(=O)NCC(=O)N[C@@H](CO)C(=O)N[C@@H](CCCCNc1c(NCCCCCN(O)C(=O)CCC(=O)NCCCCCN(O)C(=O)CCC(=O)NCCCCCN(O)C(C)=O)c(=O)c1=O)C(=O)O)C(C)C [zirconium-89 labelled]	–	–	rat, duodenum	iv, 3 nmol/kg, 72 h, ex vivo	–	tissue uptake	0.17 %ID/g
OC(c1cc(C(F)(F)F)nc2c(C(F)(F)F)cccc12)C1CCCCN1 (centres unmarked)	Plasmodium falciparum	cell growth	3D7	–	–	IC50	0.027 µM
CC1(N2CCC(n3c([C@@H]4CCCNC4)nc4ccccc43)CC2)CCCCCCC1	BCHE	–	–	concentration not given, Triton	–	efficacy	-103 ± 19.9%
COc1ccc(N2C(=O)N(c3c(C)cccc3Cl)Cc3cnc(Nc4ccc(C5CCN(C)CC5)cc4OC)nc32)nc1	Phosphatidylinositol 3-kinase catalytic subunit type 3 (PIK3C3, Homo sapiens, UniProt Q8NEB9)	kinase activity, inhibitor	–	0.5 µM, VPS34	–	inhibition	16%
COc1cc(Nc2ncc(F)c(Nc3ccc4c(n3)NC(=O)C(C)(C)O4)n2)cc(OC)c1OC	Melanocortin receptor 5 (MC5R, Homo sapiens, UniProt P33032)	–	–	–	–	IC50	> 10 µM
O=C(Nc1cnccc1Cl)N1CCN(Cc2ccc3c(c2)OC(F)(F)O3)CC1	B1 bradykinin receptor (BDKRB1, Homo sapiens, UniProt P46663)	binding	–	50 µM, added: [3H][des-Arg10]kallidin	–	inhibition	2%
COc1cc(O)ccc1OCCNCC(O)COc1cccc2[nH]c3ccccc3c12 (centres unmarked)	BCHE	–	–	concentration not given, Triton	–	efficacy	-104 ± 16%
CC[C@H](C)[C@H](NC(=O)CNC(=O)[C@@H](N)CCCCN)C(=O)N[C@@H](CC(C)C)C(=O)N[C@@H](CCCCN)C(=O)N[C@@H](CCCNC(=N)N)C(=O)N[C@@H](CCC(=O)O)C(=O)N[C@@H](CCCCN)C(=O)N[C@@H](CCCNC(=N)N)C(=O)N[C@@H](CC(C)C)C(=O)N[C@@H](CCCNC(=N)N)C(=O)N[C@@H](CCCNC(=N)N)C(=O)N[C@@H](CCCCN)C(=O)N[C@@H](CC(N)=O)C(=O)N[C@H](C(=O)N[C@@H](Cc1c[nH]cn1)C(=O)N[C@@H](Cc1c[nH]c2ccccc12)C(=O)N1CCC[C@H]1C(=O)N[C@@H](CCC(=O)O)C(=O)N[C@@H](CCC(=O)O)C(=O)NCC(=O)N[C@@H](CCCCN)C(=O)N[C@@H](CC(C)C)C(=O)N[C@@H](CCCNC(=N)N)C(=O)N[C@@H](CCC(=O)O)C(=O)N[C@@H](Cc1ccc(O)cc1)C(=O)N[C@@H](Cc1ccccc1)C(=O)N[C@@H](Cc1ccc(O)cc1)C(=O)N[C@@H](Cc1ccccc1)C(=O)N[C@@H](CCC(=O)O)C(=O)N[C@@H](CC(C)C)C(=O)N[C@@H](CC(=O)O)C(=O)N[C@@H](CCC(=O)O)C(=O)N[C@@H](C)C(=O)N[C@@H](CCC(=O)O)C(=O)N[C@@H](CCCNC(=N)N)C(=O)N[C@H](C(=O)N[C@@H](CC(N)=O)C(=O)N[C@H](C(=O)O)C(C)C)C(C)C)C(C)C	HeLa and HEK-293T cells	phosphatase bead binding, competitive inhibitor, PIB pulldown iBAQ LC-MS/MS, refers to: PPP6R1	–	concentration not given	baseline: untreated control	log2 fold change	0.07
Nc1c2c(nc3ccccc13)CCCC2O.O=C(O)/C=C\C(=O)O (centres unmarked)	BCHE	–	–	concentration not given, Triton	–	efficacy	-85.9 ± 5.17%
CO[C@H]1C[C@@H]2CC[C@@H](C)[C@@](O)(O2)C(=O)C(=O)N2CCCC[C@H]2C(=O)O[C@H]([C@H](C)C[C@@H]2CC[C@@H](OC(=O)NCCOCCOCCOCCOCCOCCOCCOCCOCCC(=O)N3CCc4cc(Cn5nc(-c6ccc7oc(N)nc7c6)c6c(N)ncnc65)ccc4C3)[C@H](OC)C2)C[C@@H](O)[C@H](C)/C=C(\C)[C@@H](O)[C@@H](OC)C(=O)[C@H](C)C[C@H](C)/C=C/C=C/C=C/1C	–	–	patients with advanced solid tumours	intravenous, 12 mg weekly, grade 3 or higher	–	dyspnoea incidence	8.3%

Repeated from above:
Structure (SMILES)	tested on	assay	test system	conditions	how to read	measurement	result
O=C(Nc1cnccc1Cl)N1CCN(Cc2ccc3c(c2)OC(F)(F)O3)CC1	B1 bradykinin receptor (BDKRB1, Homo sapiens, UniProt P46663)	binding	–	50 µM, added: [3H][des-Arg10]kallidin	–	inhibition	2%
COc1cc(O)ccc1OCCNCC(O)COc1cccc2[nH]c3ccccc3c12 (centres unmarked)	BCHE	–	–	concentration not given, Triton	–	efficacy	-104 ± 16%
CC[C@H](C)[C@H](NC(=O)CNC(=O)[C@@H](N)CCCCN)C(=O)N[C@@H](CC(C)C)C(=O)N[C@@H](CCCCN)C(=O)N[C@@H](CCCNC(=N)N)C(=O)N[C@@H](CCC(=O)O)C(=O)N[C@@H](CCCCN)C(=O)N[C@@H](CCCNC(=N)N)C(=O)N[C@@H](CC(C)C)C(=O)N[C@@H](CCCNC(=N)N)C(=O)N[C@@H](CCCNC(=N)N)C(=O)N[C@@H](CCCCN)C(=O)N[C@@H](CC(N)=O)C(=O)N[C@H](C(=O)N[C@@H](Cc1c[nH]cn1)C(=O)N[C@@H](Cc1c[nH]c2ccccc12)C(=O)N1CCC[C@H]1C(=O)N[C@@H](CCC(=O)O)C(=O)N[C@@H](CCC(=O)O)C(=O)NCC(=O)N[C@@H](CCCCN)C(=O)N[C@@H](CC(C)C)C(=O)N[C@@H](CCCNC(=N)N)C(=O)N[C@@H](CCC(=O)O)C(=O)N[C@@H](Cc1ccc(O)cc1)C(=O)N[C@@H](Cc1ccccc1)C(=O)N[C@@H](Cc1ccc(O)cc1)C(=O)N[C@@H](Cc1ccccc1)C(=O)N[C@@H](CCC(=O)O)C(=O)N[C@@H](CC(C)C)C(=O)N[C@@H](CC(=O)O)C(=O)N[C@@H](CCC(=O)O)C(=O)N[C@@H](C)C(=O)N[C@@H](CCC(=O)O)C(=O)N[C@@H](CCCNC(=N)N)C(=O)N[C@H](C(=O)N[C@@H](CC(N)=O)C(=O)N[C@H](C(=O)O)C(C)C)C(C)C)C(C)C	HeLa and HEK-293T cells	phosphatase bead binding, competitive inhibitor, PIB pulldown iBAQ LC-MS/MS, refers to: PPP6R1	–	concentration not given	baseline: untreated control	log2 fold change	0.07
Nc1c2c(nc3ccccc13)CCCC2O.O=C(O)/C=C\C(=O)O (centres unmarked)	BCHE	–	–	concentration not given, Triton	–	efficacy	-85.9 ± 5.17%
